{"data": "Published values gathered from unrelated publications", "note": "A part holds a random share of what one study measured."}
{"data": "Block 1", "target": "Max dimerization protein 1, bHLH-zipper, MAX partner unstated (MXD1, Homo sapiens, UniProt Q05195, residues 56-136)", "technique": "protein-binding microarray", "form": "double-stranded DNA, one strand shown", "sample": "in vitro", "tested at": "not given", "notes": "k-mer, scored over probes, only values ≥0.25", "direction": "higher = stronger binding", "Target sequence (chain)": "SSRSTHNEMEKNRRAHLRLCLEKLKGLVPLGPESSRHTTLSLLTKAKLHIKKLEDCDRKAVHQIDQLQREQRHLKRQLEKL"}
{"Oligonucleotide": "GCCCCTCC", "E-score": 0.362}
{"Oligonucleotide": "AACATATG", "E-score": 0.291}
{"Oligonucleotide": "ACATCGTG", "E-score": 0.308}
{"Oligonucleotide": "CCCCACCC", "E-score": 0.291}
{"Oligonucleotide": "AGCATGAG", "E-score": 0.378}
{"Oligonucleotide": "GTACACGA", "E-score": 0.337}
{"Oligonucleotide": "CCCGTGCG", "E-score": 0.281}
{"Oligonucleotide": "CCACGAGA", "E-score": 0.338}
{"Oligonucleotide": "ACATGTCG", "E-score": 0.367}
{"data": "Block 2", "target": "Fragile X messenger ribonucleoprotein 1, C-terminal low-complexity region (Fmr1, Mus musculus, UniProt P35922)", "technique": "RNA Bind-n-Seq", "form": "RNA", "sample": "in vitro", "tested at": "200 nM", "notes": "whole 134-nt RNA, ends assumed", "added": "150 mM KCl", "reference": "input library", "direction": "higher = stronger binding", "constant ends, left off below": "GGGAGUUCUACAGUCCGACGAUC … UGGAAUUCUCGGGUGUCAAGG"}
{"Oligonucleotide": "CAAGUCCUGUGCUACACAUCGUAUGUACCGAAUCGGGCCCGGGCCCGGGGCCCGGGAAAGUAUUAUGUUACGCCGUUCGGAUCUGCACUU", "log2 enrichment": -0.507}
{"Oligonucleotide": "GUCCUGUGCUACACAUCGUAUGUACCGAAUCGGGGCCCCCGGGGCCCCCGGCCCCCGGAAAGUAUUAUGUUACGCCGUUCGGAUCUGCAC", "log2 enrichment": -0.424}
{"Oligonucleotide": "GCAGGAAGUAAAAACAAAUGGAAAUGCUUCGGAUAGUGGCAGGGGUGGGGGUUACUAAGGAAAGGGUGGGAUGGGAGUGGGUAAAGAGUU", "log2 enrichment": 0.118}
{"Oligonucleotide": "UCCUGUGCUACACAUCGUAUGUACCGAAUCGGGUUUUUUGGGGUUUUUUGGGUUUUUUGGAAAGUAUUAUGUUACGCCGUUCGGAUCUGC", "log2 enrichment": 0.367}
{"Oligonucleotide": "UAACUUUAGAGGAGGAUCUGAUGGAUAUGGCAGUGGACGUGGAUUUGGGGAUGGCUAUAAUGGGUAUGGAGGAGGACCUGGAGGUCGCAA", "log2 enrichment": 0.275}
{"Oligonucleotide": "AGUCCUGUGCUACACAUCGUAUGUACCGAAUCGGGUUUGGGAAAAAAAGGGAAAGGGAAAGUAUUAUGUUACGCCGUUCGGAUCUGCACU", "log2 enrichment": 0.271}
{"Oligonucleotide": "GCAGGAAGUAAAAACAAAUGGAAAUGCUUCGGAUAGUGGCAGGGGUGGGGGUUUCUAAGGAAAGGGUGGGAUGGGAGUGGGUAAAGAGUU", "log2 enrichment": 0.641}
{"Oligonucleotide": "CUGUGCUACACAUCGUAUGUACCGAAUCGGGGCCCCCCGGGGCCCCCCGGGCCCCCCGGGGAAAGUAUUAUGUUACGCCGUUCGGAUCUG", "log2 enrichment": -1.36}
{"Oligonucleotide": "ACCAUGCAGGUGGGCAUCUUUGGGAAGUGGGGCAAGGGGGGGAUAGGGAGGGGGGUAACACUUUGGGAACAGGUGGUCCCAGGUCGUGUC", "log2 enrichment": 0.701}
{"data": "Block 3", "target": "Prothrombin, mature alpha-thrombin (F2, Homo sapiens, UniProt P00734)", "technique": "aptamer microarray, sandwich", "form": "DNA with 2'F-ANA", "sample": "in vitro", "tested at": "200 nM", "notes": "whole 15-mer aptamer, many near background", "added": "Cy3 exosite-II aptamer, 400 nM", "direction": "higher = stronger binding", "oligonucleotide": "GGTTGGTGTGGTTGG"}
{"Modification": "2'F-ANA at 1 2 3 4 5 7 9 11 13 14", "mean fluorescence intensity [a.u.]": 46.1}
{"Modification": "2'F-ANA at 1 6 8 10 11 12 13 15", "mean fluorescence intensity [a.u.]": 145}
{"Modification": "2'F-ANA at 2 3 7 9 13 14 15", "mean fluorescence intensity [a.u.]": 387}
{"Modification": "2'F-ANA at 2 4 6 7 8 10 13 14", "mean fluorescence intensity [a.u.]": 63.8}
{"Modification": "2'F-ANA at 1 4 5 6 7 8 10 11 13 14 15", "mean fluorescence intensity [a.u.]": 50.3}
{"Modification": "2'F-ANA at 1 2 3 4 10 12 13 14", "mean fluorescence intensity [a.u.]": 51.3}
{"Modification": "2'F-ANA at 1 4 5 6 8 12 13 15", "mean fluorescence intensity [a.u.]": 76.9}
{"Modification": "2'F-ANA at 2 6 7 10 12 13", "mean fluorescence intensity [a.u.]": 145}
{"data": "Block 4", "Molecule": "PhoQ, residues 284 288 289 292 302 303 TLASMF", "technique": "Sort-seq", "refers to": "YFP reporter", "sample": "E. coli", "notes": "PhoQ-PhoP variant library", "added": "10 µM Mg2+", "reference": "high Mg2+ state", "direction": "higher = stronger signaling"}
{"target": "PhoP, residues 12 14 15 18 19 NYFRM (Escherichia coli, UniProt P23836)", "fold induction": 10.9}
{"target": "PhoP, residues 12 14 15 18 19 QYFSL (Escherichia coli, UniProt P23836)", "fold induction": 4.56}
{"target": "PhoP, residues 12 14 15 18 19 TQALL (Escherichia coli, UniProt P23836)", "fold induction": 1.83}
{"note": "For quick reference, copied from above (block 1):"}
{"Oligonucleotide": "CCACGAGA", "E-score": 0.338}
{"Oligonucleotide": "CCCCACCC", "E-score": 0.291}
{"Oligonucleotide": "AACATATG", "E-score": 0.291}
